Assay results of several laboratories.
Lines come from different studies, so protocols differ.

SMILES	test system	setting	measurement	result
NCCC(=O)N1Cc2ccccc2-c2c(nnn2-c2nc3c(N)ncnc3n2C2OC(CO)C(O)C2O)-c2ccccc21 (mixture of isomers)	–	–	molar absorption coefficient	16000 M⁻¹ cm⁻¹
CN(C)c1cccc2c(S(=O)(=O)NCCNC(=O)CCCC[C@@H]3SC[C@@H]4NC(=O)N[C@@H]43)cccc12	PBS	0.5% DMSO, at absorbance maximum	molar extinction coefficient	3500 M⁻¹ cm⁻¹
CCn1cc(/C=C/c2sc3ccccc3[n+]2CC)c2ccccc21	PBS	–	molar absorptivity	46900 M⁻¹ cm⁻¹
NCCC(=O)N1Cc2ccccc2-c2c(nnn2-c2cn(C3OC(CO)C(O)C3O)c(=O)[nH]c2=O)-c2ccccc21 (mixture of isomers)	–	–	molar absorption coefficient	7300 M⁻¹ cm⁻¹
COc1c(C[C@@H](C)O)c2c3c(C[C@@H](C)O)c(OC)c(=O)c4c(O)cc(OC)c(c5c(OC)cc(O)c(c1=O)c52)c43	–	at 670 nm	molar absorption coefficient	225 M⁻¹ cm⁻¹
NCCC(=O)N1Cc2ccccc2-c2c(nnn2-c2nc(N)c3ncn(C4OC(CO)C(O)C4O)c3n2)-c2ccccc21 (mixture of isomers)	–	–	molar absorption coefficient	16400 M⁻¹ cm⁻¹
CCCc1c(OC)c(=O)c2c(O)c(C(=O)OC)c(OC)c3c4c(OC)c(C(=O)OC)c(O)c5c(=O)c(OC)c(CCC)c(c1c23)c54	–	at 670 nm	molar absorption coefficient	1430 M⁻¹ cm⁻¹
[C-]#[O+].[C-]#[O+].[C-]#[O+].[C-]#[O+].[C-]#[O+].[C-]#[O+].[Cl-].[Cl-].[Re+].[Re+].c1cnc(-c2ncccn2)nc1	10% aqueous DMSO	–	molar conductivity	140 S m²/mol
CC1=[N+]2C(=C(CCl)c3ccc(C)n3[B-]2(F)F)C=C1	DMSO	–	molar absorption coefficient	48200 M⁻¹ cm⁻¹
COc1c(C[C@@H](C)O)c2c3c(C[C@@H](C)O)c(OC)c(=O)c4c(O)cc(OC(C)C)c(c5c(OC(C)C)cc(O)c(c1=O)c52)c43	–	at 670 nm	molar absorption coefficient	150 M⁻¹ cm⁻¹
O=c1[nH]c(=O)n(C2OC(CO)C(O)C2O)cc1-n1nnc2c1CCC1C(CO)C1CC2 (mixture of isomers)	–	–	molar absorption coefficient	10100 M⁻¹ cm⁻¹
CCCOc1cc(O)c2c(=O)c(OC)c(C[C@@H](C)O)c3c4c(C[C@@H](C)O)c(OC)c(=O)c5c(O)cc(OCCC)c(c1c23)c54	–	at 670 nm	molar absorption coefficient	360 M⁻¹ cm⁻¹
CCn1cc(/C=C/c2ccc3ccccc3[n+]2CC)c2ccccc21	MeOH	–	molar absorptivity	28800 M⁻¹ cm⁻¹
CCCCCCCCCCCCCCCC(=O)OCC(COP(=O)([O-])OCC[N+](C)(C)Cc1cn(-c2cc3ccc(OC(=O)Oc4ccc(CCC(=O)C(F)(F)F)cc4)cc3oc2=O)nn1)OC(=O)CCCCCCCCCCCCCCC (stereo not drawn)	–	–	molar extinction coefficient	2780 M⁻¹ cm⁻¹
Cc1ccc(C(C)C)cc1.[Cl-].[Cl][Ru+].[Ru+].c1ccc(-c2cn(CCCCOc3ccccc3-c3nc4ccccc4s3)nn2)nc1	10% aqueous DMSO	–	molar conductance	30 S cm²/mol

Excerpt of the above:
SMILES	test system	setting	measurement	result
NCCC(=O)N1Cc2ccccc2-c2c(nnn2-c2nc3c(N)ncnc3n2C2OC(CO)C(O)C2O)-c2ccccc21 (mixture of isomers)	–	–	molar absorption coefficient	16000 M⁻¹ cm⁻¹
CN(C)c1cccc2c(S(=O)(=O)NCCNC(=O)CCCC[C@@H]3SC[C@@H]4NC(=O)N[C@@H]43)cccc12	PBS	0.5% DMSO, at absorbance maximum	molar extinction coefficient	3500 M⁻¹ cm⁻¹
